Measurements of several laboratories.
± marks the error that the study gave.

SMILES	cell line	test	test system	conditions	how to read	measurement	value
C#CC[C@H](NC(=O)CNC(=O)[C@H](CO)NC(=O)[C@@H]1CCCCNC(=O)CCCC(=O)N[C@@H](CCSC)C(=O)N[C@@H](Cc2c[nH]c3ccccc23)C(=O)N2CCC[C@H]2C(=O)N[C@@H](Cc2c[nH]cn2)C(=O)N[C@@H](CCCNC(=N)N)C(=O)N[C@@H](C(C)C)C(=O)N[C@@H]([C@@H](C)O)C(=O)N[C@@H](C)C(=O)N(C)[C@@H](C)C(=O)N1)C(=O)O	HeLa HaloTag-GFP-Mito	chloroalkane penetration	–	4 h	reference: compound over linear variant	cytosolic access ratio	~7 fold
COc1ccc2[nH]cc(CCNS(=O)(=O)CCc3cn(-c4cnc5ccccc5c4)nn3)c2c1	L02	MTT	–	50 µM	–	viability	80.1%
CCCCn1cc(C(=O)O)c(=O)c2cc(F)c(Nc3cccc(Cl)c3)c([N+](=O)[O-])c21	SW480	cell growth or viability, SRB	–	–	–	IC50	602 µM
Clc1c(Cl)c(Cl)c2c(c1Cl)Oc1c(Cl)c(Cl)c(Cl)c(Cl)c1O2	Caco-2 monolayer	GC-HRMS	static Transwell	0.2 ng/mL, 24 h, 1% DMSO, congener mixture	–	mass balance	82 ± 2%
CCCCn1cc(C(=O)O)c(=O)c2cc(F)c(Nc3ccccc3Cl)c([N+](=O)[O-])c21	SW480	cell growth, SRB	–	72 h	–	IC50	123 ± 18.4 µg/mL
C[C@H](NC(=O)[C@H](CCCNC(=N)N)NC(=O)[C@H](CCC(=O)O)NC(=O)[C@H](CCCNC(=N)N)NC(=O)[C@H](CCCNC(=N)N)NC(=O)[C@@H](NC(=O)[C@H](CCCNC(=N)N)NC(=O)[C@H](C)NC(=O)[C@H](CCCNC(=N)N)NC(=O)[C@H](CCC(=O)O)NC(=O)[C@@H](N)CCCNC(=N)N)[C@@H](C)O)C(=O)N[C@@H](CCCNC(=N)N)C(=O)N[C@H](C(=O)N[C@@H](CCCNC(=N)N)C(=O)N[C@@H](CCC(=O)O)C(=O)N[C@@H](CCCNC(=N)N)C(=O)N[C@@H](C)C(=O)N[C@@H](CCCNC(=N)N)C(=O)N[C@H](C(=O)N[C@@H](CCCNC(=N)N)C(=O)O)[C@@H](C)O)[C@@H](C)O	HUVEC	tube formation	–	concentration not given	–	cytotoxicity	not toxic
Clc1cc2oc3c(Cl)c(Cl)c(Cl)cc3c2cc1Cl	Caco-2 monolayer	GC-HRMS	gut-on-a-chip	0.2 ng/mL, 24 h, 1% DMSO	–	mass balance	93 ± 7%
CSCC[C@H](NC(=O)[C@H](CO)NC(=O)[C@H](CCCNC(=N)N)NC(=O)[C@H](Cc1ccccc1)NC(=O)[C@H](CCCNC(=N)N)NC(=O)[C@H](CCCCN)NC(C)=O)C(=O)N[C@@H](CCC(N)=O)C(=O)N[C@@H](Cc1ccc(O)cc1)C(=O)N[C@@H](CO)C(=O)N[C@@H](C)B(O)O	HEK-293T	flow cytometry	–	concentration not given, 24 h	–	cell cycle distribution	no effect
NC(=O)c1ccc(C(=O)NOCc2ccc(Sc3cccc(Cl)c3)c(C(F)(F)F)c2)cc1	SW1990 cells (human)	CCK-8	–	100 µM	–	cytotoxicity	not toxic
CC(=N)N1CC23C4C5CC5C5C4C4C2C2CC2C4C53C1 (stereo not drawn)	dog cells	cytotoxicity	–	3 (unit not given)	–	CC50	31 µM
CC(C)c1cc2c(c(O)c1O)C1(C=O)CCCC(C)(C)C1CC2 (stereo not drawn)	HeLa, SW480, HCT-116	–	–	12 h	–	cytotoxic concentration	≥ 40 µM
CC[C@H](C)[C@H](N)C1=N[C@H](C(=O)N[C@@H](CC(C)C)C(=O)N[C@H](CCC(=O)O)C(=O)N[C@@H](Cc2ccccc2)C(=O)N[C@H]2CCCCNC(=O)[C@H](CC(N)=O)NC(=O)[C@@H](CC(=O)O)NC(=O)[C@H](Cc3c[nH]cn3)NC(=O)[C@@H](Cc3ccccc3)NC(=O)[C@H]([C@@H](C)CC)NC(=O)[C@@H](CCCN)NC2=O)CS1	sheep red blood cells	–	–	128 µg/mL, 20 h, 37 °C	reference: Triton X-100 0.1%	hemolysis	0%
CSCC[C@H](NC(=O)CCCCCNC(=S)Nc1ccc2c(c1)C(=O)OC21c2ccc(O)cc2Oc2cc(O)ccc21)C(=O)N[C@@H](C)C(=O)N[C@@H](CC(N)=O)C(=O)N[C@@H](CC(C)C)C(=O)NCC(=O)N[C@@H](Cc1ccc(O)cc1)C(=O)N[C@@H](Cc1c[nH]c2ccccc12)C(=O)N[C@@H](CC(C)C)C(=O)N[C@@H](CC(C)C)C(=O)N[C@@H](C)C(=O)N[C@@H](CC(C)C)C(=O)N[C@@H](Cc1ccccc1)C(=O)N[C@H](C(=O)N[C@H](C(=O)N[C@@H](Cc1ccc(O)cc1)C(=O)N[C@@H](Cc1c[nH]c2ccccc12)C(=O)N[C@H](C(=O)N[C@@H](CC(=O)O)C(=O)N[C@@H](CC(C)C)C(=O)NCC(=O)N[C@@H](CC(C)C)C(=O)N[C@H](C(=O)N[C@@H](CCCCN)C(=O)N[C@@H](CCCCN)C(=O)N[C@@H](CCCNC(=N)N)C(=O)N1CCC[C@H]1C(=O)N[C@@H](CCCCN)C(=O)N1CCC[C@H]1C(=O)O)C(C)C)[C@@H](C)O)[C@@H](C)O)C(C)C	human B cells	–	–	60 min	–	peptide internalization	increased
C#CC[C@H](NC(=O)CNC(=O)[C@H](CO)NC(=O)[C@@H]1CCCCNC(=O)CCCC(=O)N[C@@H](CCSC)C(=O)N[C@@H](Cc2c[nH]c3ccccc23)C(=O)N2CCC[C@H]2C(=O)N[C@@H](Cc2c[nH]cn2)C(=O)N[C@@H](CCCNC(=N)N)C(=O)N[C@@H](C(C)C)C(=O)N[C@@H]([C@@H](C)O)C(=O)N[C@@H](C)C(=O)N[C@@H](C)C(=O)N1)C(=O)O	HeLa HaloTag-GFP-Mito	cell penetration, chloroalkane penetration	–	24 h	–	CP50	0.81 ± 0.04 µM
CCCCn1cc(C(=O)O)c(=O)c2cc(F)c3c(nnn3-c3cccc(Cl)c3)c21	SW480	cell growth or viability, SRB	–	–	–	IC50	152 µM
CN(C)C12C3CCC4C3C3C(CCC31)C42	dog cells	cytotoxicity	–	3 (unit not given)	–	CC50	> 100 µM
Clc1c(Cl)c(Cl)c2c(oc3c(Cl)c(Cl)c(Cl)c(Cl)c32)c1Cl	Caco-2 monolayer	GC-HRMS	gut-on-a-chip	0.2 ng/mL, 24 h, 1% DMSO	–	mass balance	96 ± 8%
O=C(CCc1ccccc1)NOC(=O)OCc1ccccc1	L929	MTT	–	25 µM, 24 h	–	viability	> 98%
S=c1n(-c2ccccc2)c2c3ccccc3nc3[n+]2[n]1[Ir-3]12([S]3)([c]3cccc4ccc5ccc[n+]1c5c34)[c]1cccc3ccc4ccc[n+]2c4c13	HeLa cells	annexin V/propidium iodide	–	concentration not given, dark	–	mortality	< 3.4%
O=C(/C=C/c1ccccc1)c1cc2ccccc2oc1=O	Vero	–	–	up to 100 µg/mL	–	cytotoxicity	not toxic
CCCCn1cc(C(=O)O)c(=O)c2cc(F)c(Nc3cccc(Cl)c3)c(N)c21	SW480	cell growth, SRB	–	72 h	–	IC50	28.4 ± 1.98 µg/mL
CC[C@H](C)[C@H](N)C1=N[C@H](C(=O)N[C@@H](CC(C)C)C(=O)N[C@H](CCC(=O)O)C(=O)N[C@H](C(=O)N[C@H]2CCCCNC(=O)[C@H](CC(N)=O)NC(=O)[C@@H](CC(=O)O)NC(=O)[C@H](Cc3c[nH]cn3)NC(=O)[C@@H](Cc3ccc(-c4ccccc4)cc3)NC(=O)[C@H]([C@@H](C)CC)NC(=O)[C@@H](CCCN)NC2=O)[C@@H](C)CC)CS1	sheep red blood cells	–	–	128 µg/mL, 20 h, 37 °C	reference: Triton X-100 0.1%	hemolysis	0%
CCCCn1cc(C(=O)O)c(=O)c2cc(F)c(Nc3ccccc3Cl)c(N)c21	HT-29	cell growth, SRB	–	72 h	–	IC50	38.5 ± 0.71 µg/mL
CC[C@H](C)[C@H](NC(=O)[C@H](CCCCN)NC(=O)[C@H](CC(C)C)NC(=O)[C@H](C)NC(=O)[C@H](CC(C)C)NC(=O)[C@H](CO)NC(=O)[C@H](C)NC(=O)[C@H](CC(C)C)NC(=O)[C@H](Cc1ccccc1)NC(=O)[C@@H]1CCCN1C(=O)[C@H](CC(C)C)NC(=O)[C@@H](N)Cc1ccccc1)C(=O)N[C@@H](CC(C)C)C(N)=O	HaCaT	CCK-8	–	2 µM	–	viability	~100%

Excerpt of the above:
SMILES	cell line	test	test system	conditions	how to read	measurement	value
COc1ccc2[nH]cc(CCNS(=O)(=O)CCc3cn(-c4cnc5ccccc5c4)nn3)c2c1	L02	MTT	–	50 µM	–	viability	80.1%
CCCCn1cc(C(=O)O)c(=O)c2cc(F)c(Nc3cccc(Cl)c3)c([N+](=O)[O-])c21	SW480	cell growth or viability, SRB	–	–	–	IC50	602 µM
Clc1c(Cl)c(Cl)c2c(c1Cl)Oc1c(Cl)c(Cl)c(Cl)c(Cl)c1O2	Caco-2 monolayer	GC-HRMS	static Transwell	0.2 ng/mL, 24 h, 1% DMSO, congener mixture	–	mass balance	82 ± 2%
CCCCn1cc(C(=O)O)c(=O)c2cc(F)c(Nc3ccccc3Cl)c([N+](=O)[O-])c21	SW480	cell growth, SRB	–	72 h	–	IC50	123 ± 18.4 µg/mL
